Measured values of several laboratories.
Numbers after ± are the reported error.
MC3R: Melanocortin receptor 3 (MC3R, Homo sapiens, UniProt P41968)
UniProt P41968, sequence (whole entry, looked up): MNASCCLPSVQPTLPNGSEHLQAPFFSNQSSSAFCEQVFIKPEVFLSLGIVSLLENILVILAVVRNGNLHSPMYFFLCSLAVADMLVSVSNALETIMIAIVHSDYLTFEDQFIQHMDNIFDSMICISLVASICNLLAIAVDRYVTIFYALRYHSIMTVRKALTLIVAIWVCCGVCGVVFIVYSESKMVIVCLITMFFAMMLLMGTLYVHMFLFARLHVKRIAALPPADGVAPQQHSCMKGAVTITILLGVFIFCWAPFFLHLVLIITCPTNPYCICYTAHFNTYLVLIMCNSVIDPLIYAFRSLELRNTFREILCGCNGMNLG
ESR1: Estrogen receptor (ESR1, Homo sapiens, UniProt P03372)
UniProt P03372, sequence (whole entry, looked up): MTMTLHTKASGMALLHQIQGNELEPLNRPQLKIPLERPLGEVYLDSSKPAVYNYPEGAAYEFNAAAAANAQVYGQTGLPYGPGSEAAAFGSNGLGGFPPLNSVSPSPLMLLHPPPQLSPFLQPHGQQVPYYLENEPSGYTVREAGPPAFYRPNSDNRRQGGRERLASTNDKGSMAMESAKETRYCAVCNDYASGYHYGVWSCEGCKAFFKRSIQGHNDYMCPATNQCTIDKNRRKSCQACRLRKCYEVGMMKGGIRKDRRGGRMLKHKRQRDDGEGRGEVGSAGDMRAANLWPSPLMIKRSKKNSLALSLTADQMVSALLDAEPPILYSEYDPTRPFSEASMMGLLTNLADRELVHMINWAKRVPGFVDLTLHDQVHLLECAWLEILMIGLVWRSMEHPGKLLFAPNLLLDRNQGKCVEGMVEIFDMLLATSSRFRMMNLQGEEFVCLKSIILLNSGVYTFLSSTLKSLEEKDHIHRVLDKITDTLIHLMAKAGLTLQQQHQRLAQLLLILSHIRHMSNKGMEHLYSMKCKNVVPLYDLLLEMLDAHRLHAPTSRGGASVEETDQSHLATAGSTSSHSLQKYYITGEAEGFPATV
FPR1: fMet-Leu-Phe receptor (FPR1, Homo sapiens, UniProt P21462)
C3AR1: C3a anaphylatoxin chemotactic receptor (C3AR1, Homo sapiens, UniProt Q16581)
UniProt Q16581, sequence (whole entry, looked up): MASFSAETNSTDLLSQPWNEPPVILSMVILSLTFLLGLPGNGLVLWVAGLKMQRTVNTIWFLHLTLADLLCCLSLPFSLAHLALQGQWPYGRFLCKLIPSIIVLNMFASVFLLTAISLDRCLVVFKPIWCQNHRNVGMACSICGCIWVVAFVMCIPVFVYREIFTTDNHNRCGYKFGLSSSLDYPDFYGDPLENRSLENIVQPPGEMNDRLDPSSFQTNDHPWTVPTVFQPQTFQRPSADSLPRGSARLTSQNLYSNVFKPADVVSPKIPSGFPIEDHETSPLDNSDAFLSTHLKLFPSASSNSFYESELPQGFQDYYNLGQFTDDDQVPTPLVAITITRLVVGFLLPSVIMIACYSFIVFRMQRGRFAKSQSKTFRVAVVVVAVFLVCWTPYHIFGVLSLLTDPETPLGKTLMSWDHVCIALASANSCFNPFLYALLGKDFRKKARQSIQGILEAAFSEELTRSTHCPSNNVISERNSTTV
ADORA1: Adenosine receptor A1 (ADORA1, Homo sapiens, UniProt P30542)
UniProt P30542, sequence (whole entry, looked up): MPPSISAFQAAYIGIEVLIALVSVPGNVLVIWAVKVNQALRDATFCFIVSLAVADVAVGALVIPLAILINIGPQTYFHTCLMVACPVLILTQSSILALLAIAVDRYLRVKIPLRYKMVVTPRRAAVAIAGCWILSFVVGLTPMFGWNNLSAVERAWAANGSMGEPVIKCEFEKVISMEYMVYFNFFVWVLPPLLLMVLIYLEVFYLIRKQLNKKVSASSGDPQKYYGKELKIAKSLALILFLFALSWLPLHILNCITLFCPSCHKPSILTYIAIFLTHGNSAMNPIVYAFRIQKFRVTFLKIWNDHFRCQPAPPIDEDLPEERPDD
UniProt P34972, sequence (whole entry, looked up): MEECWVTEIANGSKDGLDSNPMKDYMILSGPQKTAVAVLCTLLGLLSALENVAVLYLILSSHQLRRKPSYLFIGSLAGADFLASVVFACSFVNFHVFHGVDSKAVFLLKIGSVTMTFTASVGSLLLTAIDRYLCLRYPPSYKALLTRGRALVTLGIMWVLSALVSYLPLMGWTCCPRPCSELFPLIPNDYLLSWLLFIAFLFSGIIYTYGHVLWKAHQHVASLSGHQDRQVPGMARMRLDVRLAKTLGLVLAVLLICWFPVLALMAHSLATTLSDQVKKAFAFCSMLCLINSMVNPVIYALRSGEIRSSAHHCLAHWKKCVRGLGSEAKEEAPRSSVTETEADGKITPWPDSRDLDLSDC
UniProt Q92731, sequence (whole entry, looked up): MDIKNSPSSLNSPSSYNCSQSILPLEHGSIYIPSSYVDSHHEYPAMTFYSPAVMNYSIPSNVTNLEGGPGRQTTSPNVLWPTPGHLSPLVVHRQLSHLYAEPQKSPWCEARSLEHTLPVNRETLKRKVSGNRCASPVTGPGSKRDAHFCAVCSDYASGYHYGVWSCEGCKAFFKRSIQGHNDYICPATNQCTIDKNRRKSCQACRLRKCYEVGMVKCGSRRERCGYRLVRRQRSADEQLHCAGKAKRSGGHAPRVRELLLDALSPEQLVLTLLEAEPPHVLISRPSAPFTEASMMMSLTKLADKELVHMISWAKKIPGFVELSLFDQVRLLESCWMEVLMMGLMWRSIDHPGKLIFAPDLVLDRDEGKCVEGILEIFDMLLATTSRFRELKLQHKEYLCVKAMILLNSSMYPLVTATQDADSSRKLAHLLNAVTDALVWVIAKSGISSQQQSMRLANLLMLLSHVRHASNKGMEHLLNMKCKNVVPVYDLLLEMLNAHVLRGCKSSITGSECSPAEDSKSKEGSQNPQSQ
UniProt P19793, sequence (whole entry, looked up): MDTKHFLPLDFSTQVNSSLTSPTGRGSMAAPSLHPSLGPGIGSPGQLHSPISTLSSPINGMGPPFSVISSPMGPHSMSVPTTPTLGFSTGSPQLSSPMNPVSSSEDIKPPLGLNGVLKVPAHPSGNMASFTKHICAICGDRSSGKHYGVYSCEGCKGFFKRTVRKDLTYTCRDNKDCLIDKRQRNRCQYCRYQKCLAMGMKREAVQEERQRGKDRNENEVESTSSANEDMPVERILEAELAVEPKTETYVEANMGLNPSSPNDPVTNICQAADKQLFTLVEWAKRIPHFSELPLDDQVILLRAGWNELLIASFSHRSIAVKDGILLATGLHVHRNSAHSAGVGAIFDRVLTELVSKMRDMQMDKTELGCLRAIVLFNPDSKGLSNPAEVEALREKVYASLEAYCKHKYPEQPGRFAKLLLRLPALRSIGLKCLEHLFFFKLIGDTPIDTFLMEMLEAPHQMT
UniProt Q8BZP8, sequence (whole entry, looked up): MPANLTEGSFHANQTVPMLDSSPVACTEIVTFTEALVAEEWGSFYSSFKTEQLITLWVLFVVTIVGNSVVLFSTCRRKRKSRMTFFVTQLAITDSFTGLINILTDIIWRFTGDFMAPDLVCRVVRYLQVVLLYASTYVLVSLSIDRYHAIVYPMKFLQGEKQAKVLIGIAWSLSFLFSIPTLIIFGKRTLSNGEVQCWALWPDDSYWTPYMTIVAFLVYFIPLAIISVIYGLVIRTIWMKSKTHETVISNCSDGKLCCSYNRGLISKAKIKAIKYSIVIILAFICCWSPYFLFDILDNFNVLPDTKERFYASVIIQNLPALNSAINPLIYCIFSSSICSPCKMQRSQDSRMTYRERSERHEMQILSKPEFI
UniProt Q9UNQ0, sequence (whole entry, looked up): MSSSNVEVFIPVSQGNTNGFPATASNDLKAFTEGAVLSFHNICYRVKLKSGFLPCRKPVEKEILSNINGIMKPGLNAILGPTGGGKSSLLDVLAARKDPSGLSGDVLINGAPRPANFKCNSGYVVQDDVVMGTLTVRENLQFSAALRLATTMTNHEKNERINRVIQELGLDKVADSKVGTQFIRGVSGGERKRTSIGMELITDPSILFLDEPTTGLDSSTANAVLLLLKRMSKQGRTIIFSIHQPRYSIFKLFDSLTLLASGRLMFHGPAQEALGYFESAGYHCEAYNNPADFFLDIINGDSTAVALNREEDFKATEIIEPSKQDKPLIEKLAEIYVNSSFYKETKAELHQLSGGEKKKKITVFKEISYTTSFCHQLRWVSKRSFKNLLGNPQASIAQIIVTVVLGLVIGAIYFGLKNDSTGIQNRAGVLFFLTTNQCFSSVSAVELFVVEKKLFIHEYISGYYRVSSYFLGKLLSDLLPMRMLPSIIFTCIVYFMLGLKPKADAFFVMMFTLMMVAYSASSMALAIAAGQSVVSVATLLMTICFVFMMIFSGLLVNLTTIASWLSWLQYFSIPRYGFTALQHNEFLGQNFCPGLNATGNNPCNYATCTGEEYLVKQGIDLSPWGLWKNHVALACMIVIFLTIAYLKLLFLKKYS
UniProt P35372, sequence (whole entry, looked up): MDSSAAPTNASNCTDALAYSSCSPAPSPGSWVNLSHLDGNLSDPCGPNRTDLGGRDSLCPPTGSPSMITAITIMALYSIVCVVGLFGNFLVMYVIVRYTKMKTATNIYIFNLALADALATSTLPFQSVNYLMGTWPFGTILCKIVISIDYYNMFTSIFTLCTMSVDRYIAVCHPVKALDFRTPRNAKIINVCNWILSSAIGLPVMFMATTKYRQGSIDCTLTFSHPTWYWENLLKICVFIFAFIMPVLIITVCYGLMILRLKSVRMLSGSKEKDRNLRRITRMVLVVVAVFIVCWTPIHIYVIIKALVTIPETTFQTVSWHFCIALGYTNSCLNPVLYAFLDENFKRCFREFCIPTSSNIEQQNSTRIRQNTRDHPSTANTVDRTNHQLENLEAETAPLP
UniProt P11229, sequence (whole entry, looked up): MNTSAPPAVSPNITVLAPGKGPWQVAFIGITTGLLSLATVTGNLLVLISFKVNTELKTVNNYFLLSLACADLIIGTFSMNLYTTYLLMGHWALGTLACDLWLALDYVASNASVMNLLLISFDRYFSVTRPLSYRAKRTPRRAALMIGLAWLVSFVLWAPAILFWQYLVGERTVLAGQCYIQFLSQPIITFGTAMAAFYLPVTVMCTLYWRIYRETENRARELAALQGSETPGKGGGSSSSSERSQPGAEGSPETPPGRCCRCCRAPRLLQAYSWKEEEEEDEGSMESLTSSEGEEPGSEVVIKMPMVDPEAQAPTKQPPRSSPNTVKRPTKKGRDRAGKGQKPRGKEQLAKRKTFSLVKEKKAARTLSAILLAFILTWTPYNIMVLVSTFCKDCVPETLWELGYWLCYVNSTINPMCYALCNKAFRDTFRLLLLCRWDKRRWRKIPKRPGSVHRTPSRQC

SMILES	target	assay	test system	setting	EC50 [nM]
O=C(CCc1ccc(O)cc1)c1c(O)cc(O)cc1O	Estrogen receptor beta (ESR2, Homo sapiens, UniProt Q92731)	coactivator recruitment, agonist			25500
N=C(N)NCCC[C@H](NC(=O)[C@H](CC(=O)O)NC(=O)[C@@H]1CSCCCC(=O)NCC(=O)N[C@@H](Cc2c[nH]cn2)C(=O)N[C@H](Cc2ccccc2)C(=O)N[C@@H](CCCNC(=N)N)C(=O)N[C@H](Cc2c[nH]c3ccccc23)C(=O)N1)C(=O)N[C@@H](Cc1ccccc1)C(=O)NCC(N)=O	MC3R	cAMP, agonist			100
COc1ccccc1OS(=O)(=O)C1CC2OC1C(c1ccc(O)cc1)=C2c1ccc(O)cc1 (racemic)	ESR1	reporter gene, agonist, luciferase			560
CCCC[C@H](NC=O)C(=O)N[C@@H](CC(C)C)C(=O)N[C@@H](Cc1ccccc1)C(=O)O	FPR1	receptor surface downregulation, agonist	CHO cells	1 h, 37 °C	50 ± 7
CC(C)C[C@H](NC(=O)[C@@H](N)[C@@H](C)O)C(=O)N[C@@H](CCC(N)=O)C(=O)N1CCC[C@H]1C(=O)N1CCC[C@H]1C(=O)N[C@@H](C)C(=O)N[C@@H](CO)C(=O)N[C@@H](CO)C(=O)N[C@@H](CCCNC(=N)N)C(=O)N[C@@H](CCCNC(=N)N)C(=O)N[C@@H](CCCNC(=N)N)C(=O)N[C@@H](Cc1c[nH]cn1)C(=O)N[C@@H](Cc1ccccc1)C(=O)N[C@@H](Cc1c[nH]cn1)C(=O)N[C@@H](Cc1c[nH]cn1)C(=O)N[C@@H](C)C(=O)N[C@@H](CC(C)C)C(=O)N1CCC[C@H]1C(=O)N1CCC[C@H]1C(=O)N[C@@H](C)C(=O)N[C@@H](CCCNC(=N)N)C(=O)O	C3AR1	β-arrestin2 recruitment, agonist, BRET		60 min, 37 °C, added: GRK2 co-expression	542
CCCn1c(=O)c2[nH]c(-c3ccc(OCC(=O)NCCNS(=O)(=O)c4cccc5c(N(C)C)cccc45)cc3)nc2n(CCC)c1=O	ADORA1	reporter gene, agonist			145
N=C(N)NCCC[C@H](NC(=O)[C@H](CC(=O)O)NC(=O)[C@@H]1CSCC(=O)NCC(=O)N[C@@H](Cc2c[nH]cn2)C(=O)N[C@H](Cc2ccccc2)C(=O)N[C@@H](CCCNC(=N)N)C(=O)N[C@@H](Cc2c[nH]c3ccccc23)C(=O)N1)C(=O)N[C@@H](Cc1ccccc1)C(=O)NCC(N)=O	MC3R	cAMP, agonist			195
COc1ccc(C2=NOC(CN3CCC(N4CCCC4=O)c4ccccc43)C2)cc1OC (centres unmarked)	Broad substrate specificity ATP-binding cassette transporter ABCG2 (ABCG2, Homo sapiens, UniProt Q9UNQ0)	ATPase activity, activator		20 min, pH 6.8, cell membranes	170
N=C(N)NCCC[C@H](NC(=O)[C@H](Cc1ccccc1)NC(=O)[C@@H](N)CO)C(=O)N[C@@H](CC(N)=O)C(=O)NCC(N)=O	Neuropeptide S receptor (Mus musculus, UniProt Q8BZP8)	cAMP, agonist, TR-FRET			> 10000
CCN1C(=O)/C(=C\c2ccc(O)cc2)SC1=S	ESR1	coactivator recruitment, agonist			330
C=C(c1ncc(C(=O)O)cn1)c1cc2c(cc1C)C(C)(C)CCC2(C)C	Retinoic acid receptor RXR-alpha (RXRA, Homo sapiens, UniProt P19793)	reporter gene, agonist, mammalian two-hybrid	HCT-116, transfected	24 h	44
CCNC(=O)[C@H]1O[C@@H](n2cnc3c(NCCCCCNC(=O)CCCCCNC(=O)COc4ccc(/C=C/C5=[N+]6C(=Cc7ccc(-c8cccs8)n7[B-]6(F)F)C=C5)cc4)ncnc32)[C@H](O)[C@@H]1O	ADORA1	CRE-SPAP reporter gene, agonist	CHO-A1	Gs enhancement, added: forskolin, pertussis toxin 100 ng/mL overnight	263
CC(C)C[C@H](NC(=O)CNC(=O)[C@H](CC(C)C)NC(=O)[C@H](CCCCN)NC(=O)[C@H](CO)NC(=O)[C@H](C)NC(=O)[C@H](CCCN=C(N)N)NC(=O)[C@H](Cc1ccc(O)cc1)NC(=O)[C@H](CCCCN)NC(=O)[C@H](CCCCN)NC(=O)CNC(=O)[C@H](Cc1c[nH]c2ccccc12)NC(=O)[C@@H](N)Cc1c[nH]c2ccccc12)C(=O)N[C@@H](C)C(=O)N[C@@H](CCCN=C(N)N)C(=O)O	C3AR1	cAMP, agonist, luciferase			0.089
O=C(NCc1ccsc1)N1CCN(C(Cc2cccc(O)c2)c2ccccc2)CC1 (centres unmarked)	Mu-type opioid receptor (OPRM1, Homo sapiens, UniProt P35372)	cAMP, agonist	CHO-K1		1.4
CSCC[C@H](NC(=O)CNC(=O)[C@H](CCCCN)NC(=O)[C@@H](N)Cc1c[nH]c2ccccc12)C(=O)N[C@H](C(=O)N[C@H](CCSC)C(N)=O)C(C)C	FPR1	binding, competitor	U-937	4 °C, added: 5 nM WK(FL)YMVm	> 6700
O=C1C[C@H](c2nc(-c3ccc(F)c4cn[nH]c34)no2)CCCN1c1ccc(F)cc1 (racemic)	Cannabinoid receptor 2 (CNR2, Homo sapiens, UniProt P34972)	cAMP, agonist, luciferase			26.5
Cc1ccc(Oc2cc(C(=O)NCc3ccccn3)nc3ccsc23)cn1	Muscarinic acetylcholine receptor M1 (CHRM1, Homo sapiens, UniProt P11229)	positive allosteric modulator			> 30000

Repeated from above:
SMILES	target	assay	test system	setting	EC50 [nM]
CC(C)C[C@H](NC(=O)CNC(=O)[C@H](CC(C)C)NC(=O)[C@H](CCCCN)NC(=O)[C@H](CO)NC(=O)[C@H](C)NC(=O)[C@H](CCCN=C(N)N)NC(=O)[C@H](Cc1ccc(O)cc1)NC(=O)[C@H](CCCCN)NC(=O)[C@H](CCCCN)NC(=O)CNC(=O)[C@H](Cc1c[nH]c2ccccc12)NC(=O)[C@@H](N)Cc1c[nH]c2ccccc12)C(=O)N[C@@H](C)C(=O)N[C@@H](CCCN=C(N)N)C(=O)O	C3AR1	cAMP, agonist, luciferase			0.089
O=C(NCc1ccsc1)N1CCN(C(Cc2cccc(O)c2)c2ccccc2)CC1 (centres unmarked)	Mu-type opioid receptor (OPRM1, Homo sapiens, UniProt P35372)	cAMP, agonist	CHO-K1		1.4
